# Results gathered from unrelated publications.
# Each line is one published result; not all experiments were run side by side. ± marks the error that the study gave.
# Target: Receptor tyrosine-protein kinase erbB-2 (ERBB2, Homo sapiens, UniProt P04626)
Structure (SMILES),test,setting,how to read,measurement,value
COc1ccc(F)cc1C(=O)NCc1ccc(-c2nn([C@@H](C)C(F)(F)F)c(N)c2C(N)=O)cc1,"kinase activity, inhibitor, HotSpot radiometric","100 nM, together with: ATP 10 µM",,remaining activity,97.3 ± 0.2%
[2H]c1cc(C)c(NC(=O)c2cnc(Nc3cc(N4CCC(O)CC4)nc(C)n3)s2)c(Cl)c1,,0.001 µM,,inhibition,< 50%
CCCC[C@H](NC(=O)[C@H](CCC(=O)O)NC(=O)[C@H](CCCCN)NC(=O)[C@H](CO)NC(=O)[C@H](Cc1ccccc1)NC(C)=O)C(=O)N[C@@H](CCCNC(=N)N)C(=O)N[C@@H](CC(N)=O)C(=O)N[C@@H](CCCNC(=N)N)C(=O)N[C@@H](Cc1ccc(O)cc1)C(=O)N[C@@H](Cc1csc2ccccc12)C(=O)N[C@@H](CCCC(=O)NCCN(CC(=O)NCCN(CC(=O)NCCN(CC(=O)NCCN(CC(N)=O)C(=O)Cn1cnc2c(=O)[nH]c(N)nc21)C(=O)Cn1ccc(N)nc1=O)C(=O)Cn1ccc(N)nc1=O)C(=O)Cn1cnc2c(=O)[nH]c(N)nc21)C(=O)N[C@@H](CS)C(=O)N[C@@H](C)C(=O)N[C@@H](CC(C)C)C(=O)N[C@@H](CC(=O)O)C(=O)N1CCC[C@H]1C(=O)N[C@@H](CC(N)=O)C(=O)N[C@@H](CC(C)C)C(=O)N[C@H](C(=O)N[C@@H](CC(N)=O)C(=O)N[C@@H](CCC(N)=O)C(=O)N[C@@H](CCC(N)=O)C(=O)N[C@@H](CCCCN)C(=O)N[C@@H](CCCNC(=N)N)C(=O)N[C@@H](C)C(=O)N[C@@H](CCCCNC(=O)CN(CCNC(=O)CN(CCNC(=O)CN(CCNC(=O)CN(CCNC(=O)[C@H](CCCNC(=N)N)NC(C)=O)C(=O)Cn1ccc(N)nc1=O)C(=O)Cn1cnc2c(=O)[nH]c(N)nc21)C(=O)Cn1cnc2c(=O)[nH]c(N)nc21)C(=O)Cn1ccc(N)nc1=O)C(=O)N[C@H](C(=O)N[C@@H](CCCNC(=N)N)C(=O)N[C@@H](CO)C(=O)N[C@H](C(=O)N[C@@H](Cc1ccc(O)cc1)C(=O)N[C@@H](CCC(=O)O)C(=O)N[C@@H](CCC(=O)O)C(=O)NCC(=O)N[C@@H](CCC(=O)O)C(N)=O)[C@@H](C)CC)[C@@H](C)CC)[C@@H](C)O,"binding, affinity selection mass spectrometry","1 h, 4 °C, unit not given",relative to: control-subtracted,enrichment,2.62
Cc1nc(Nc2ncc(C(=O)Nc3c(C)cccc3Cl)s2)cc(N2CCN(CCO)CC2)n1,"kinase activity, inhibitor, Kinase-Glo MAX",0.1 µM,,inhibition,53.6%
C=CC(=O)N1CCC[C@@H](n2nc(-c3ccc(Oc4ccccc4)cc3)c3c(N)ncnc32)C1,,1 µM,,remaining activity,28.6%
c1cnc2ccc(Nc3nc(NC4CC4)c4nc[nH]c4n3)cc2c1,"kinase activity, inhibitor, SelectScreen kinase profiling",1 µM,relative to: control,remaining activity,102%
CC[C@H](C)[C@H](NC(=O)[C@H](CCCCNC(=O)CN(CCNC(=O)CN(CCNC(=O)CN(CCNC(=O)CN(CCNC(=O)[C@H](CCCNC(=N)N)NC(C)=O)C(=O)Cn1ccc(N)nc1=O)C(=O)Cn1cnc2c(=O)[nH]c(N)nc21)C(=O)Cn1cnc2c(=O)[nH]c(N)nc21)C(=O)Cn1ccc(N)nc1=O)NC(=O)[C@H](C)NC(=O)[C@H](CCCNC(=N)N)NC(=O)[C@H](CCCCN)NC(=O)[C@H](CCC(N)=O)NC(=O)[C@H](CCC(N)=O)NC(=O)[C@H](CC(N)=O)NC(=O)[C@@H](NC(=O)[C@H](CC(C)C)NC(=O)[C@H](CC(N)=O)NC(=O)[C@@H]1CCCN1C(=O)[C@H](CC(=O)O)NC(=O)[C@H](CC(C)C)NC(=O)[C@H](C)NC(=O)[C@H](CS)NC(=O)[C@H](CCCC(=O)NCCN(CC(=O)NCCN(CC(=O)NCCN(CC(=O)NCCN(CC(N)=O)C(=O)Cn1cnc2c(=O)[nH]c(N)nc21)C(=O)Cn1ccc(N)nc1=O)C(=O)Cn1ccc(N)nc1=O)C(=O)Cn1cnc2c(=O)[nH]c(N)nc21)NC(=O)[C@H](Cc1c[nH]c2ccccc12)NC(=O)[C@H](Cc1ccc(O)cc1)NC(=O)[C@H](CCCNC(=N)N)NC(=O)[C@H](CC(N)=O)NC(=O)[C@H](CCCNC(=N)N)NC(=O)[C@H](CC1CCCCC1)NC(=O)[C@H](CCC(=O)O)NC(=O)[C@H](CCCCN)NC(=O)[C@H](CO)NC(=O)[C@H](Cc1ccccc1)NC(C)=O)[C@@H](C)O)C(=O)N[C@@H](CCCNC(=N)N)C(=O)N[C@@H](CO)C(=O)N[C@H](C(=O)N[C@@H](Cc1ccc(O)cc1)C(=O)N[C@@H](CCC(=O)O)C(=O)N[C@@H](CCC(=O)O)C(N)=O)[C@@H](C)CC,"binding, SPR",,,dissociation half-life,9.6 min
C=CC(=O)N1CCC(COCC(=O)N2CCN(c3nc(-c4cnc(N)nc4C(F)F)nc(N4CCOC[C@@H]4C)n3)CC2)CC1,KINOMEscan,1 µM,,remaining binding,100%
CC[C@H](C)[C@H](NC(=O)[C@H](CCCCNC(=O)CN(CCNC(=O)CN(CCNC(=O)CN(CCNC(=O)CN(CCNC(=O)[C@H](CCCNC(=N)N)NC(C)=O)C(=O)Cn1ccc(N)nc1=O)C(=O)Cn1cnc2c(=O)[nH]c(N)nc21)C(=O)Cn1cnc2c(=O)[nH]c(N)nc21)C(=O)Cn1ccc(N)nc1=O)NC(=O)[C@H](C)NC(=O)[C@H](CCCNC(=N)N)NC(=O)[C@H](CCCCN)NC(=O)[C@H](CCC(N)=O)NC(=O)[C@H](CCC(N)=O)NC(=O)[C@H](CC(N)=O)NC(=O)[C@@H](NC(=O)[C@H](CC(C)C)NC(=O)[C@H](CC(N)=O)NC(=O)[C@@H]1CCCN1C(=O)[C@H](CC(=O)O)NC(=O)[C@H](CC(C)C)NC(=O)[C@H](C)NC(=O)[C@H](CS)NC(=O)[C@H](CCCC(=O)NCCN(CC(=O)NCCN(CC(=O)NCCN(CC(=O)NCCN(CC(N)=O)C(=O)Cn1cnc2c(=O)[nH]c(N)nc21)C(=O)Cn1ccc(N)nc1=O)C(=O)Cn1ccc(N)nc1=O)C(=O)Cn1cnc2c(=O)[nH]c(N)nc21)NC(=O)[C@H](Cc1c[nH]c2ccccc12)NC(=O)[C@H](Cc1ccc(O)cc1)NC(=O)[C@H](CCCNC(=N)N)NC(=O)[C@H](CC(N)=O)NC(=O)[C@H](CCCNC(=N)N)NC(=O)[C@H](CC1CCCCC1)NC(=O)[C@H](CCC(=O)O)NC(=O)[C@H](CCCCN)NC(C)=O)[C@@H](C)O)C(=O)N[C@@H](CCCNC(=N)N)C(=O)N[C@@H](CO)C(=O)N[C@H](C(=O)N[C@@H](Cc1ccc(O)cc1)C(=O)N[C@@H](CCC(=O)O)C(=O)N[C@@H](CCC(=O)O)C(=O)NCC(=O)N[C@@H](CCC(=O)O)C(N)=O)[C@@H](C)CC,"binding, affinity selection mass spectrometry","1 h, 4 °C, unit not given",relative to: control-subtracted,enrichment,4.74
CC#CC(=O)N1CCC[C@H]1c1nc(-c2ccc(C(=O)Nc3ccccn3)cc2)c2c(N)nccn12,"kinase activity, inhibitor, HotSpot radiometric","100 nM, together with: ATP 10 µM",,remaining activity,99.5 ± 1.3%

# A few entries again:
Structure (SMILES),test,setting,how to read,measurement,value
Cc1nc(Nc2ncc(C(=O)Nc3c(C)cccc3Cl)s2)cc(N2CCN(CCO)CC2)n1,"kinase activity, inhibitor, Kinase-Glo MAX",0.1 µM,,inhibition,53.6%
